Measurements collected from several papers.
Each line is one published result; not all experiments were run side by side. ± gives the spread as reported.
Target: Cytochrome P450 3A4 (CYP3A4, Homo sapiens, UniProt P08684)
UniProt P08684, sequence (whole entry, looked up): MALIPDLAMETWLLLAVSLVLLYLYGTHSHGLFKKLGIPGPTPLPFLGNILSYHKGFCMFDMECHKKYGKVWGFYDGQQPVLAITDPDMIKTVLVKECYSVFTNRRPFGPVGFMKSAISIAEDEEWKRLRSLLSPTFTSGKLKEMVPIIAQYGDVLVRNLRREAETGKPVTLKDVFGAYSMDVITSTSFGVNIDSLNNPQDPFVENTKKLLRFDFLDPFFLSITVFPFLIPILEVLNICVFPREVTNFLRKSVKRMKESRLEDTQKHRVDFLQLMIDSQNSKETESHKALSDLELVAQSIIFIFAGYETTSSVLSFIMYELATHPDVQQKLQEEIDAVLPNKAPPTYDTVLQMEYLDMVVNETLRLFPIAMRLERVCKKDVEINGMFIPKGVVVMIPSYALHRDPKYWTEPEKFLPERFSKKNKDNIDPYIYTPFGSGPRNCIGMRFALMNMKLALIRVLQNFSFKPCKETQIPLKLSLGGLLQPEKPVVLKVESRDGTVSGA

Compound | test | system | conditions | how to read | measurement | value
CCCS(=O)(=O)c1ccc2[nH]c(NC(=O)OC)nc2c1 | – | human liver microsomes | 10 µM, pH 7.4, together with: midazolam | – | inhibition | < 0%
O=C(NC(CSC(Cc1ccccc1)C(=O)NCCCc1cccnc1)Cc1c[nH]c2ccccc12)c1cccnc1 (stereo not drawn) | thermal stability | – | – | – | ΔTm | 6.3 °C
Cc1c(NC(=O)c2ccc3c(c2)CC[C@@H]2C[C@@](O)(C(F)(F)F)CC[C@@]32Cc2ccccc2)ccc[n+]1[O-] | enzyme activity, reversible inhibitor | pooled human liver microsomes | together with: midazolam 1'-hydroxylation | – | IC50 | > 100 µM
CC(C)c1ccc(Cn2ccc([C@H](C)[C@](O)(Cn3cnnn3)c3ccc(F)cc3F)n2)cc1 | – | Candida albicans, SC5314, human liver microsomes | together with: midazolam | relative to: IC50 CYP3A4 over MIC | selectivity ratio | > 1900
COc1ccc2cc(NC(=O)c3cc(-c4ccccn4)nc4ccccc34)ccc2c1 | substrate, item: naphthalene-hydroxylated metabolite M1 | baculosomes | – | – | kcat | 0.03 s⁻¹
O=C(NC(CSC(Cc1ccccc1)C(=O)NCCCc1cccnc1)Cc1ccc(-c2ccccc2)cc1)c1cccnc1 (stereo not drawn) | binding, absorbance | – | pH 7.4 | – | Kd | 0.053 µM
C=C(C)[C@@H]1CCC(C(=O)O)=C[C@H]1c1c(O)cc(CCCCC)cc1O | – | human | 750 mg single dose | – | half-life | 24.6 h
CNC(=O)Oc1cc(C)c([S+](C)[O-])c(C)c1 (stereo not drawn) | – | human liver microsomes | 2 µM, pH 7.4, together with: midazolam | – | inhibition | < 0%
Cc1ccc(N2CC3CCC(C2)N3C)cc1C(=O)N[C@H](C)c1cc(-c2cnn(C)c2)nc2ccccc12 | enzyme activity | – | – | – | IC50 | > 50 µM
CCN(CC)CCNC(=O)c1c(C)[nH]c(C=C2C(=O)Nc3ccc(O)cc32)c1C | metabolite | recombinant enzyme | 10 min, enzyme 20 nM, together with: sunitinib 0.05 to 50 µM, glutathione 5 mM | – | relative kcat/Km | 0.03 ± 0.01
CC(=O)OC1(C(C)=O)CCC2C3C=C(CO)C4=CC(=O)CCC4(C)C3CCC21C (stereo not drawn) | substrate | recombinant enzyme | 62 µM, 25 min | – | formation rate | 9.6 ± 0.3 pmol/min/pmol P450
COc1ccc(F)cc1S(=O)(=O)Nc1cnc2c(c1)C(=O)NCCO2 | inhibitor | human liver microsomes | together with: testosterone | – | IC50 | > 100 µM
CNC(=O)Oc1cc(C)c(S(C)(=O)=O)c(C)c1 | inhibitor | – | 10 µM, pH 7.4 | – | inhibition | 7.7%
Cc1ccc(OCC(=O)N(Cc2cccs2)c2ccn[nH]2)cc1 | enzyme activity, inhibitor | human, liver microsomes | 10 µM, midazolam probe | – | inhibition | 57%
CC(C)(O)c1ccccc1CC[C@H](c1cccc(/C=C/c2ccc3ccc(Cl)cc3n2)c1)[S+]([O-])CC1(CC(=O)O)CC1 (stereo partly drawn) | inhibitor | – | 2 µM, pH 7.4 | – | inhibition | < 0%
CC(c1ccc(Br)cc1)N1CCCC(n2c(=O)[nH]c3cc(Cl)c(Cl)cc32)CC1 (stereo not drawn) | – | – | 10 µM, 10 (unit not given) | – | inhibition | 11%
O=C1Cc2cc(CCN3CCN(C4=NS(=O)(=O)c5ccccc54)CC3)c(Cl)cc2N1 | – | human liver microsomes | 10 µM, pH 7.4, together with: midazolam | – | inhibition | < 0%
Cc1cn2c(C(=O)NCc3ccc(C(F)(F)F)cc3)c(C)nc2s1 | inhibitor | – | – | – | IC50 | > 20 µM

A few entries again:
Compound | test | system | conditions | how to read | measurement | value
O=C(NC(CSC(Cc1ccccc1)C(=O)NCCCc1cccnc1)Cc1c[nH]c2ccccc12)c1cccnc1 (stereo not drawn) | thermal stability | – | – | – | ΔTm | 6.3 °C
Cc1c(NC(=O)c2ccc3c(c2)CC[C@@H]2C[C@@](O)(C(F)(F)F)CC[C@@]32Cc2ccccc2)ccc[n+]1[O-] | enzyme activity, reversible inhibitor | pooled human liver microsomes | together with: midazolam 1'-hydroxylation | – | IC50 | > 100 µM
